Assay results pooled from the literature.
Each numbered part is a random draw from the data of one study; scales do not carry over between parts.

Sample 1 — technique: protein binding microarray; form: double-stranded DNA, one strand shown; sample: in vitro; tested at: not given; relative to: not given; direction: higher = stronger binding
Target: Histone acetyltransferase KAT6A, winged helix 1, GST fusion (KAT6A, Homo sapiens, UniProt Q92794, residues 1-85)
Notes: 8-mer, flanks averaged, mean of 2 arrays, mostly near background
Residues (chain): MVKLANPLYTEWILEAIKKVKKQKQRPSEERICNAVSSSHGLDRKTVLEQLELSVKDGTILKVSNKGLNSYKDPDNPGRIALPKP
Strand | E-score
ACGTTCAC | 0.0469
TAGAGTAA | -0.0457
CTCTGAAA | -0.158
AAATGATA | -0.0118
AGTAAATG | -0.0733

Sample 2 — technique: competition protein-binding microarray; form: double-stranded DNA, one strand shown; sample: in vitro; tested at: 2 µM; with: Cbf1 competitor, 0.05 µM; direction: higher = stronger binding
Target: Phosphate system positive regulatory protein PHO4, full length, GST-tagged (PHO4, Saccharomyces cerevisiae, UniProt P07270, residues 1-312)
Notes: whole 60-bp probe, lowest competitor level
Residues (chain): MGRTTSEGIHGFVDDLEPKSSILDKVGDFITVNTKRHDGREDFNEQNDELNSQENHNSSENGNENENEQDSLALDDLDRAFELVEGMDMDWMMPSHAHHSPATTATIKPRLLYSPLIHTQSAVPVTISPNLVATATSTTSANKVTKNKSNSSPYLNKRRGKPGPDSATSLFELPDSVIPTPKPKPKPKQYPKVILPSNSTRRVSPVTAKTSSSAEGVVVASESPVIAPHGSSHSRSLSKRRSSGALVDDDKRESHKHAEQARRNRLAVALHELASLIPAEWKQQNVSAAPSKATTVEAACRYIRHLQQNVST
Strand | fluorescence intensity
CGTCCTAGTGATTTTCACGTGTTATCCATGAGGAAGGTCTTGATTCGCTTGACGCTGCTG | 14700 a.u.
CCCTCCTCTCAGTCCCACGTGGGCGCTGGCGGCTTTGTCTTGATTCGCTTGACGCTGCTG | 18600 a.u.
CTAACGAAGGTTTGGGGCGTGGGTGACAAGCCAAGTGTCTTGATTCGCTTGACGCTGCTG | 11000 a.u.
CTTTCCCGATCTTGCGGAGTGGGTGTAGCACATTTGGTCTTGATTCGCTTGACGCTGCTG | 4550 a.u.

Sample 3 — technique: RNA Bind-n-Seq; form: RNA; sample: in vitro; tested at: 200 nM; notes: whole 134-nt RNA, ends assumed; with: 150 mM KCl; relative to: input library; direction: higher = stronger binding
Target: Ras GTPase-activating protein-binding protein 1, full length (G3BP1, Homo sapiens, UniProt Q13283)
UniProt Q13283, sequence (whole entry, looked up): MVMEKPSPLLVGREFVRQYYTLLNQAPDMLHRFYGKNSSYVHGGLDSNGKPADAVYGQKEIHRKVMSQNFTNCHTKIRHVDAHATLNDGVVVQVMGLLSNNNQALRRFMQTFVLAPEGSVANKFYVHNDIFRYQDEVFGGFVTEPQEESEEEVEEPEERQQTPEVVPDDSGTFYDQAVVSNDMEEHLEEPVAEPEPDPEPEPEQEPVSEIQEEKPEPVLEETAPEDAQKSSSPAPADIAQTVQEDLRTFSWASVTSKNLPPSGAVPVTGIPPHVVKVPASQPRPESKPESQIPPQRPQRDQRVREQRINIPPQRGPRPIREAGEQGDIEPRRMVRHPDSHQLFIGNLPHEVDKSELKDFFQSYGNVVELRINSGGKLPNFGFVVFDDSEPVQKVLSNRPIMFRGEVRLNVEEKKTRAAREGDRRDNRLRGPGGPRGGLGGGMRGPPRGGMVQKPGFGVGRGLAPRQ
Strand | log2 enrichment
GGGAGUUCUACAGUCCGACGAUCUGGGAGGUGGAUUUUGUUUAUUUUUUUAGCUCAUUUCCAGGGGUGGGAAUUUUUAUUUAAUAUGUGUCAUGAAUAAAGUUGUUUUUGAAAUGGAAUUCUCGGGUGUCAAGG | 0.315
GGGAGUUCUACAGUCCGACGAUCUGGGAGGUGGAUUUUGUUUAUUUUUUUAGCUCAUUUCCAGGUGUGGGAAUUUUUUUUUAAUAUGUGUCAUGAAUAAAGUUGUUUUUGAAAUGGAAUUCUCGGGUGUCAAGG | -0.12
GGGAGUUCUACAGUCCGACGAUCCAAGUCCUGUGCUACACAUCGUAUGUACCGAAUCGGCCCCGGGCCCCGGCCCCGGAAAGUAUUAUGUUACGCCGUUCGGAUCUGCACUUCUGGAAUUCUCGGGUGUCAAGG | -0.514
GGGAGUUCUACAGUCCGACGAUCCAAGUCCUGUGCUACACAUCGUAUGUACCGAAUCGGGUUUUUUUGGGAGGGUGGGAAAGUAUUAUGUUACGCCGUUCGGAUCUGCACUUCUGGAAUUCUCGGGUGUCAAGG | 0.483

Mixed results
Molecule | target | assay | system | setting | how to read | measurement | result
PhoQ, residues 284 288 289 292 302 303 SIHLQL | PhoP, residues 12 14 15 18 19 HLGGL (Escherichia coli, UniProt P23836) | Sort-seq, measured: YFP reporter | E. coli | PhoQ-PhoP variant library, with: 10 µM Mg2+ | relative to: high Mg2+ state, higher = stronger signaling | fold induction | 14.4

Some of these lines once more (sample 1):
Strand | E-score
ACGTTCAC | 0.0469
